Measurements gathered from unrelated publications.
Several values in a cell are separate wells, animals, samples, runs or records. Numbers after ± are the reported error.

Under “participants with adverse event”, COc1ccc(C[C@@H]2NC(=O)[C@H]([C@@H](C)O)NC(=O)[C@@H]3[C@@H]4CCN3C(=O)[C@@H]3Cc5cn(c6ccc(F)cc56)CCCCCCN(Cc5ccc(cc5)CCNC(=O)[C@]5(C)CCCN5C2=O)C(=O)CCC(=O)N[C@@H](C)C(=O)N[C@H](CNC(=O)CCCCC[N+](C)(C)C)C(=O)N[C@@H](Cc2cccc(c2)CNC(=O)CO4)C(=O)N3)cc1 is recorded as 0% (measured: Conjunctivitis; humans; concentration not given, Study-003).
The drug concentration of COc1ncccc1-c1cnn2ccc(N3CCN(C(=O)OC(C)C)CC3)nc12 is reported as 1400 nM (rat, CCI mechanical hyperalgesia model, brain; oral, 3 mg/kg, 210 min).
COc1ncnn2ccc(-c3cnc4nc(C)n(Cc5nnc([C@@H](C)F)o5)c4c3)c12 — result for “incidence of Dehydration”: 0% (human patients; oral, dose not given, grade 1 adverse drug reaction).
CC(C)[C@@H]1NC(=O)CNC(=O)[C@H](CC(N)=O)NC(=O)[C@H](CCCNC(=N)N)NC(=O)[C@H](Cc2ccc(O)cc2)NC(=O)[C@H](C(C)C)NC(=O)[C@@H](NC(=O)[C@@H](NC(=O)[C@H](CC(N)=O)NC(=O)[C@H](Cc2c[nH]c3ccccc23)NC(=O)[C@H](C)NC(=O)[C@H](Cc2ccccc2)NC(=O)CN)C(C)C)CSSC[C@@H](C(=O)N[C@@H](Cc2cnc[nH]2)C(=O)N[C@@H](CCCNC(=N)N)C(=O)N[C@@H](CCCNC(=N)N)C(=O)N[C@@H](C)C(=O)N[C@@H](CC(N)=O)C(N)=O)NC(=O)[C@H](C(C)C)NC(=O)[C@H](CCCNC(=N)N)NC1=O has a glucose of 1.59 ± 0.1 mmol/L (ICR mouse, blood; intramammary, 5 mg/kg, day 5, 3 d dosing).
NC(=O)[C@H]1CCN(c2ncnc(N)c2F)C[C@@H]1N1CCC[C@@H](Nc2cc(Cl)cc(C(F)(F)F)c2)C1=O — result for “grade ≥3 hyponatraemia”: 14% (B-cell malignancy patients; oral, 82 mg twice daily, dose).
For CCC[C@@](N)(CO)CCc1ccc(OCCCCCC(C)C)cc1, “volume of distribution (Vz)” read 18 L/kg (hound dogs, male; intravenous, 1.0 mg/kg, geometric mean).
Under “AE leading to dose reduction”, CO[C@H]1C[C@@H]2CC[C@@H](C)[C@@](O)(O2)C(=O)C(=O)N2CCCC[C@H]2C(=O)O[C@H]([C@H](C)C[C@@H]2CC[C@@H](OC(=O)NCCOCCOCCOCCOCCOCCOCCOCCOCCC(=O)N3CCc4cc(Cn5nc(-c6ccc7oc(N)nc7c6)c6c(N)ncnc65)ccc4C3)[C@H](OC)C2)C[C@@H](O)[C@H](C)/C=C(\C)[C@@H](O)[C@@H](OC)C(=O)[C@H](C)C[C@H](C)/C=C/C=C/C=C/1C is recorded as 25% (patients with advanced solid tumours; intravenous, 10 mg weekly, any grade).
For O=c1ccc2ncc(=O)n3c2n1C[C@H]3CN1CCC(NCc2cc3c(cn2)OCCC3)CC1, the AUC(0-t) was 9800 ng·h/mL (healthy human volunteers, plasma; oral, dose not given, arithmetic mean, together with: rifampicin).
For O=C1CC[C@H](N2Cc3cc(N4CCN(CC5CCN(c6ccc([C@@H]7c8ccc(O)cc8CC[C@@H]7c7ccccc7)cc6)CC5)CC4)ccc3C2=O)C(=O)N1, tolerability read “not toxic” (healthy human; oral, dose not given, single doses without rosuvastatin).
The t1/2 of CC(=O)c1c(C)c2cnc(Nc3ccc(C4CCN(CCS(C)(=O)=O)CC4)cn3)nc2n(C2CCCC2)c1=O is reported as 9.23 h (human, plasma; oral, 75 mg twice daily, day 21, multiple doses, together with: fulvestrant).
C[C@@H]1OC(=O)NN=C1c1ccc(-c2ccc(F)cc2)c(C(F)(F)F)c1: “patients with adverse event” 0% (phase I trial, measured: Presyncope all grades; human patients; 5 mg once daily).
For C[C@H]1CN(C(=O)CC#N)[C@]12CCN(c1ncnc3[nH]ccc13)C2, “Cmax at NOAEL” read 9.9 ng/mL (minipig, male; dermal, 20 mg/kg repeated, 9 months).
COc1ccc(-c2c(-c3ccc(C#N)c(F)c3)nc(N3CCC(N)CC3)n(C)c2=O)cc1F — result for “treatment-related adverse event incidence”: 0% (measured: Leukopenia; human patients; oral, dose not given, grade 3 to 4, dose escalation, NG).
C[C@]1(CO)Cc2ncn(-c3ccc(C#N)c(Cl)c3)c2C(=O)O1 has an AUC(0-inf) of 0.904 µM·h (human, Chinese, plasma; 3 mg single dose, geometric mean).
For CCCCCCCCCCCCCCCC(=O)N[C@@H](CCC(=O)NCCCC[C@H](NC(=O)[C@H](CC(=O)O)NC(=O)[C@H](CO)NC(=O)[C@@H](NC(=O)[C@H](Cc1ccccc1)NC(=O)[C@@H](NC(=O)CNC(=O)[C@H](CCC(N)=O)NC(=O)[C@H](CO)NC(=O)[C@@H](N)Cc1c[nH]cn1)[C@@H](C)O)[C@@H](C)O)C(=O)N[C@@H](CO)C(=O)N[C@@H](CCC(=O)O)C(=O)N[C@@H](Cc1ccc(O)cc1)C(=O)N[C@@H](CC(C)C)C(=O)N[C@@H](CC(=O)O)C(=O)N[C@@H](CO)C(=O)N[C@@H](CCC(=O)O)C(=O)N[C@@H](CCCNC(=N)N)C(=O)N[C@@H](C)C(=O)N[C@@H](CCCNC(=N)N)C(=O)N[C@@H](CC(=O)O)C(=O)N[C@@H](Cc1ccccc1)C(=O)N[C@H](C(=O)N[C@@H](C)C(=O)N[C@@H](Cc1c[nH]c2ccccc12)C(=O)N[C@@H](CC(C)C)C(=O)N[C@@H](CCC(=O)O)C(=O)N[C@@H](C)C(=O)NCC(=O)NCC(=O)O)C(C)C)C(=O)O, “treatment-related adverse events” read 0% (measured: Flatulence; humans CrCl at least 90 mL/min; subcutaneous, 100 µg single dose).
For O=C(Nc1ccccc1)C1CCN(C(=O)Oc2cccnc2)CC1, “subjects with Tachycardia adverse event” read 0% (adverse event reporting; healthy women; oral, 100 mg, 9 days).
The calcium of CC(C)C[C@H](NC(=O)[C@H](CCCCN)NC(=O)OCC1c2ccccc2-c2ccccc21)C(=O)N[C@H](C(=O)N[C@@H](Cc1ccccc1)C(=O)N[C@@H](Cc1ccccc1)C(=O)N[C@@H](CCCCN)C(=O)NCC(=O)N[C@@H](Cc1ccccc1)C(=O)N[C@@H](C)C(=O)N[C@@H](Cc1c[nH]c2ccccc12)C(=O)N[C@@H](CC(N)=O)C(=O)N[C@H](C(=O)N[C@H]1CSSC[C@@H](C(=O)N[C@@H](Cc2c[nH]cn2)C(=O)N[C@@H](CCCNC(=N)N)C(=O)N[C@@H](CCCNC(=N)N)C(=O)N[C@@H](C)C(=O)N[C@@H](CC(N)=O)C(N)=O)NC(=O)[C@H](C(C)C)NC(=O)[C@H](CCCNC(=N)N)NC(=O)[C@H](C(C)C)NC(=O)CNC(=O)[C@H](CC(N)=O)NC(=O)[C@H](CCCNC(=N)N)NC(=O)[C@H](Cc2ccc(O)cc2)NC(=O)[C@H](C(C)C)NC1=O)C(C)C)C(C)C is reported as 1.37 ± 0.05 mmol/L (ICR mouse, blood; intramammary, 5 mg/kg, day 5, 3 d dosing).
Cc1cccc(Cn2nc(C3CC3)c3c(NC(=O)c4cnc5cc(OCCN6CCN(C)CC6)ccn45)cccc32)n1: “all-cause adverse events” 25.9% (CTCAE v4.03, measured: abdominal pain; pancreatic ductal adenocarcinoma patients; oral, dose not given, together with: pembrolizumab IV every 3 weeks).
O=c1cc(-c2ccc(O)c(O)c2)oc2cc(O)cc(O)c12 — result for “faecal excreted amount”: 102 ± 56.5 ng (male Sprague-Dawley rat, obese; oral, 100 mg/kg of neohesperidin, 12 to 24 h).
Fc1ccc([C@@H]2CCNC[C@H]2COc2ccc3c(c2)OCO3)cc1 has a QTc interval of 394 ± 16 ms (ECG, Fridericia correction; healthy participants; oral, dose not given, -1 h).
For COc1cc2c(Oc3ccc4[nH]c(C)cc4c3F)ccnc2cc1OCC1(N)CC1, “grade 3 Fever” read 0% (paediatric recurrent refractory sarcoma; 12 mg).
O=C1Nc2cc3[nH]nc(-c4ccncc4)c3cc2CN1Cc1ccccc1: “patients with ≥1 TEAE” 67% (CTCAE v4.03; advanced solid tumour patients; intravenous, 3.6 mg/kg).
C[C@]1(O)C[C@@](N)(c2ccc(-c3nc4n(c3-c3ccccc3)COc3ccncc3-4)cc2)C1 — result for “patients with Anemia TEAE”: 33.3% (human, advanced or metastatic solid tumours; once daily, dose escalation total, any grade).
Cn1c(-c2ccc(C(N)=O)cc2F)nnc1C(C)(C)Oc1c(F)cc(Cl)cc1F: “subjects with drug-related TEAE” 16.7% (human; oral, 1 mg, single ascending dose).
CC[C@H](C)[C@H](NC(=O)[C@H](CC(C)C)NC(=O)[C@H](Cc1c[nH]c2ccccc12)NC(=O)[C@H](CCC(N)=O)NC(=O)[C@@H](NC(=O)[C@H](Cc1ccccc1)NC(=O)[C@H](C)NC(=O)[C@H](CCCCNC(=O)COCCOCCNC(=O)COCCOCCNC(=O)CC[C@H](NC(=O)CCCCCCCCCCCCCCCCCCC(=O)O)C(=O)O)NC(=O)[C@H](CCC(N)=O)NC(=O)[C@H](C)NC(=O)[C@@H](NC(=O)[C@H](CCCCN)NC(=O)[C@H](CC(=O)O)NC(=O)[C@H](CC(C)C)NC(=O)C(C)(C)NC(=O)[C@@H](NC(=O)[C@H](CO)NC(=O)[C@H](Cc1ccc(O)cc1)NC(=O)[C@H](CC(=O)O)NC(=O)[C@H](CO)NC(=O)[C@@H](NC(=O)[C@H](Cc1ccccc1)NC(=O)[C@@H](NC(=O)CNC(=O)[C@H](CCC(=O)O)NC(=O)C(C)(C)NC(=O)[C@@H](N)Cc1ccc(O)cc1)[C@@H](C)O)[C@@H](C)O)[C@@H](C)CC)[C@@H](C)CC)C(C)C)C(=O)N[C@@H](C)C(=O)NCC(=O)NCC(=O)N1CCC[C@H]1C(=O)N[C@@H](CO)C(=O)N[C@@H](CO)C(=O)NCC(=O)N[C@@H](C)C(=O)N1CCC[C@H]1C(=O)N1CCC[C@H]1C(=O)N1CCC[C@H]1C(=O)N[C@@H](CO)C(N)=O gave a peak-to-trough ratio of 2.14 (human, plasma; subcutaneous, 5 mg group, week 8, geometric mean; baseline: peak over trough concentration).
Under “patients with adverse event”, CN1CC[C@@H](c2c(O)cc(O)c3c(=O)cc(-c4ccc(C(F)(F)F)cc4Cl)oc23)[C@@H]1CO is recorded as 0% (measured: Neutropenia; B-cell malignancies or AML; oral, 100 mg, continuous dosing).
For COc1cc2nccc(Oc3ccc(NC(=O)c4cc5c(n(-c6ccccc6)c4=O)CCCC5=O)nc3)c2cc1OC, “fatal drug-related TEAEs” read 0% (relapsed/refractory AML patients; oral, 6 mg once daily).
C=CC(=O)N1CCC(c2ccc(C(N)=O)c(-c3ccc(Oc4ccccc4)cc3)n2)CC1 — result for “incidence of fatal serious TRAEs”: 0% (CTCAE 4.03; patients with relapsed/refractory MCL; oral, 150 mg once daily).
CC(C)[C@@H](CN1CC[C@@](C)(c2cccc(O)c2)[C@@H](C)C1)NC(=O)[C@@H]1Cc2ccc(O)cc2CN1C gave a Kp of 0.3 (rat; intraperitoneal, 5 mg/kg, brain over plasma AUClast).
COc1cccc(Oc2ccccc2NC(=O)CNC(=O)c2cccc3ccccc23)c1 — result for “mean corpuscular hemoglobin”: 15 pg and 14.9 pg (esterase-deficient SCID mice, male, blood; oral, 100 mg/kg/day, 14 days, toxicity study).
O=C(Oc1ccc(I)cc1)[c-]1cccc1.[Fe+2].c1cc[cH-]c1 has a reduction potential of 502 mV (cyclic voltammetry; methanol/DMEM 1:1 with TBAPF6; concentration not given, Pt disk electrode, Ag/AgCl reference, together with: scan rate 100 mV/s).
For O=S(=O)(Nc1ccccc1)c1ccc(NC(=S)Nc2ccccc2)cc1, “blood cell fraction” read 16.6% (measured: RDW; female mouse, blood; oral, 20 mg/kg daily, 14 days).
O=C(O)CCCOc1ccc(F)cc1-c1cc(-c2ccccc2C(F)(F)F)n(-c2ccccc2)n1 gave an organ weight of 0.48 ± 0.14 g (male Crl:CD(SD) rats, prostate; intravenous, 25 µg/kg, 14 d).
For CC[C@H](C)[C@H](NC(=O)[C@H](Cc1ccccc1)NC(=O)[C@H](CCC(=O)O)NC(=O)[C@H](CCCNC(=N)N)NC(=O)[C@H](C)NC(=O)[C@H](C)NC(=O)[C@H](CCC(N)=O)NC(=O)[C@H](CCC(=O)O)NC(=O)[C@H](CCC(=O)O)NC(=O)[C@H](CC(C)C)NC(=O)[C@H](Cc1ccc(O)cc1)NC(=O)[C@H](CO)NC(=O)[C@H](CO)NC(=O)[C@@H](NC(=O)[C@H](CC(=O)O)NC(=O)[C@H](CO)NC(=O)[C@@H](NC(=O)[C@H](Cc1ccccc1)NC(=O)[C@@H](NC(=O)CNC(=O)[C@H](CCC(=O)O)NC(=O)[C@H](C)NC(=O)CCc1cnc[nH]1)[C@@H](C)O)[C@@H](C)O)C(C)C)C(=O)N[C@@H](C)C(=O)N[C@@H](Cc1c[nH]c2ccccc12)C(=O)N[C@@H](CC(C)C)C(=O)N[C@H](C(=O)N[C@@H](CCCNC(=N)N)C(=O)NCC(=O)N[C@@H](CCCNC(=N)N)C(=O)N[C@@H](CCCCNC(=O)COCCOCCNC(=O)COCCOCCNC(=O)CC[C@H](NC(=O)CCCCCCCCCCCCCCCCC(=O)O)C(=O)O)C(=O)NCC(=O)NCC(=O)N[C@@H](CO)C(=O)N[C@@H](CCCCNC(=O)[C@H](CCCCNc1c(NCCCCCN(O)C(=O)CCC(=O)NCCCCCN(O)C(=O)CCC(=O)NCCCCCN(O)C(C)=O)c(=O)c1=O)Nc1c(NCCCCCN(O)C(=O)CCC(=O)NCCCCCN(O)C(=O)CCC(=O)NCCCCCN(O)C(C)=O)c(=O)c1=O)C(=O)O)C(C)C [zirconium-89 labelled], the tissue uptake was 0.222 %ID/g and 0.19 %ID/g and 0.204 %ID/g and 0.177 %ID/g and 0.216 %ID/g (ex vivo gamma counting; Sprague-Dawley rat, male, heart; intravenous, 1 nmol, 24 h).
Under “AE leading to interruption”, CC(C)n1c(C2CCNCC2)nc2c([N+](=O)[O-])c(Br)c(Br)cc21 is recorded as 2% (patients with AML; 125 mg, septic shock).
Under “enzyme contribution to clearance”, CC(C)=CC1C(C(=O)OC(C#N)c2cccc(Oc3ccccc3)c2)C1(C)C (stereo not shown) is recorded as 0.62% (measured: CYP3A4; human, age 6 months).
For CCc1ccc(CC/C=C/c2ccc3c(c2)C(=O)CC3)cc1, “CK serum activity” read 460 U/L (Sprague-Dawley rat, male; oral, 30 mg/kg/day, 14 days).
